Measurements from different studies.
Protocols differ between the studies behind these lines. Several values in a cell are separate wells, animals, samples, runs or records. ± marks the error that the study gave.

Structure (SMILES) | cell line | assay | system | setting | how to read | endpoint | result
CCCCCCCCCCCCCC(=O)O[C@@H]1[C@@H](C)[C@@]2(O)[C@@H](C=C(CO)C[C@]3(O)C(=O)C(C)=C[C@@H]23)[C@@H]2C(C)(C)[C@]12OC(C)=O | HEL | flow cytometry |  | concentration not given | relative to: cells | S phase cells | 20.7% and 20.1% and 21.6%
Oc1ccc(C2(c3ccc(O)cc3)c3ccccc3-c3ccccc32)cc1 | HepG2 spheroids | planimetry |  | 2.5 µM, 0 to 24 h | relative to: mean area of 72 h spheroids | spheroid area increase | 122%
O=C1CCP(c2ccccc2)CC1 | PC-3 | MTT |  | 72 h | relative to: IC50 HaCaT over IC50 PC-3 | selectivity index | 0.8
C/C=C(/C)C(=O)O[C@H]1C(C)=C2[C@H]([C@@H]1OC(=O)CCCCCCC)[C@@](C)(OC(C)=O)C[C@H](OC(=O)CCC)[C@@]1(O)[C@H]2OC(=O)[C@@]1(C)O | HEK293 | western blot, measured: total eIF2α |  | 3 µM, 6 h, unit not given | relative to: mock | protein level | 1.22 and 1.03 and 1.12
O=C1CCP(=S)(c2ccccc2)CC1 | HaCaT | ELISA |  | concentration not given, compound at IC50 | relative to: control | IL-6 level reduction | 38.9%
Cn1cncc1C1=CN(c2ncnc3[nH]cnc23)CCS1 | MDA-MB-435 |  |  | melanoma cell line |  | CC50 | > 200000 nM
Cc1cccc(-c2cccc(C)n2)n1.Cc1cccc(-c2cccc(C)n2)n1.F[P-](F)(F)(F)(F)F.F[P-](F)(F)(F)(F)F.[Ru+2].c1ccc2cc(-c3nc4c5cccnc5c5ncccc5c4[nH]3)ccc2c1 | SK-MEL-28 | cell viability |  | 1% O2, with: green light 523 nm, 100 J/cm2 |  | EC50 | 56300 ± 2200 nM
COc1cc(CCC[P+](c2ccccc2)(c2ccccc2)c2ccccc2)c(OC)c2c1OCO2.[I-] | UACC-62 | SRB |  |  |  | GI50 | -6.2 log M
O=C(Nc1ccc2[nH]nc(-c3ccncc3)c2c1)[C@@H]1CCN(CC(=O)N2CCN(c3ccc(-c4ncccn4)cc3)CC2)C1 | HCT116 | IncuCyte |  | concentration not given, 44 (unit not given) |  | PI-positive cells | 24.1 count and 20.5 count and 25.2 count
CC(c1ccccc1)(c1ccc(O)cc1)c1ccc(O)cc1 | HepG2 spheroids | Hoechst flow cytometry |  | 0.10 µM, 96 h |  | S phase cells | 7.96 ± 1.58%
COc1ccc2c(c1)[nH]c1c(C)nccc12 | DU-145 | bisulfite pyrosequencing, measured: RASSF1A promoter CpG site 11 |  | concentration not given | relative to: vehicle | methylation reduction | 0.59%
CC(C)=CCc1c(O)cc(O)cc1-c1cc2ccc(O)c(CC=C(C)C)c2o1 | 3T3 | cell growth, MTT |  | 12.5 µg/mL, 48 h |  | cell survival | 73.74 ± 0.28%
CN1CCN(S(=O)(=O)c2cc([N+](=O)[O-])ccc2N(CCOS(C)(=O)=O)CCOS(C)(=O)=O)CC1 | sample G B-ALL PDX cells | cell viability | ex vivo | 48 h, with: AKR1C3 inhibitor | relative to: with inhibitor over alone | IC50 fold change | 1
COc1c(C)c2c(c(O)c1C/C=C(\C)CCC(=O)O)C(=O)OC2 | CLS-439 | cell proliferation |  |  |  | IC50 | 468 nM
CC(C)C[C@H](NC(=O)[C@H](CCc1ccccc1)NC(=O)CN1CCOCC1)C(=O)N[C@@H](Cc1ccccc1)C(=O)N[C@@H](CC(C)C)C(=O)[C@@]1(C)CO1 | patient normal conditionally reprogrammed cells | RNA-seq, measured: NLRP2 mRNA | human | concentration not given | relative to: DMSO | fold change | -4850
CC(=O)c1ccc(C(O)C(C)C)cc1 (racemic) | HEK-293T |  |  | 250 µM, 48 h |  | cells killed | 50%
N.N.[Cl][Pt][Cl] | A3/KAW | cell proliferation, CellTiter-Glo |  | 10 µM, 72 h |  | inhibition | 100%
N.N.[Cl][Pt][Cl] | SK-MEL-28 | cell viability, resazurin |  | dark, 1% O2 hypoxia |  | EC50 | 3350 ± 90 nM
CCCCCCCCCCCCN1/C(=C\C=C\C2=[N+](CCCCCCCCCCCC)c3ccccc3C2(C)C)C(C)(C)c2ccccc21.[O-][Cl+3]([O-])([O-])[O-] | mouse erythrocytes |  |  | 1 h, 37 °C, 25 µM lipids |  | labelling efficiency | 100%
C/C=C(/C)C(=O)O[C@H]1C(C)=C2[C@H]([C@@H]1OC(=O)CCCCCCC)[C@@](C)(OC(C)=O)C[C@H](OC(=O)CCC)[C@@]1(O)[C@H]2OC(=O)[C@@]1(C)O | HEK-293T | RNA-seq GSEA, measured: Hallmark allograft rejection |  | 500 nM, 6 h | direction not given | normalized enrichment score | -1.04
Nc1ncnc2c1ncn2[C@@H]1O[C@@H]2COP(=O)(O)O[C@H]3[C@@H](O)[C@H](n4cnc5c(=O)[nH]cnc54)O[C@@H]3COP(=O)(O)O[C@H]2[C@H]1O | HFF-1 | RNA sequencing, measured: Sensory Perception |  | downregulated pathway | relative to: Zika virus alone | pathway fold enrichment | 3.05

Structure (SMILES) | cell line | assay | system | setting | how to read | endpoint | result
O=S(=O)(c1ccc(O)cc1)c1ccc(O)cc1 | HepG2 spheroids | Hoechst flow cytometry |  | 1 µM, 96 h |  | S phase cells | 11.2 ± 5.37%
COc1cnc(OC)n2nc(NS(=O)(=O)c3c(OCC(F)F)cccc3C(F)(F)F)nc12 | HEK293T | cytotoxicity, CCK-8 |  | 6.25 µM, 72 h |  | inhibition | 0.1 ± 0.34%
Cc1cc(C(C)(C)c2ccc(O)c(C)c2)ccc1O | HepG2 spheroids | Hoechst flow cytometry |  | 10 µM, 24 h |  | S phase cells | 9.44 ± 2.36%
Oc1cc(O)cc(-c2cc3ccc(O)cc3o2)c1 | 3T3 | cell growth, MTT |  | 25 µg/mL, 48 h |  | cell survival | 51.44 ± 0.44%
CC(C)[C@H](N)C(=O)N1CCC[C@H]1B(O)O | Ker-CT keratinocytes, GSDME knockout | inducer, ELISA |  | concentration not given, compound alone |  | IL-1beta release | 617 pg/mL and 638 pg/mL and 728 pg/mL
COc1ccc([C@H]2c3[nH]c4ccc(Cl)cc4c3CCN2C(=O)Oc2ccc(Cl)cc2)cc1 | CD19+ B cells with PBMC | cytokine secretion, measured: s-IL-17F |  | 0.1 µM, 72 h, BioMAP BT system |  | inhibition | 74%
N.N.[Cl][Pt][Cl] | SiHa and Ca-Ski | flow cytometry |  | concentration not given, 48 h, compound alone | relative to: DMSO | γ-H2AX increase | ~6 fold
CCN(CC)c1ccc(C=NNC(=O)CSc2nc3ccccc3c(=O)n2Cc2ccc(S(N)(=O)=O)cc2)c(O)c1 | SK-MEL-2 | NCI five-dose screen |  |  |  | CC50 | > 100000 nM
COc1cc2c(cc1OC)[C@@]13CCN4CC5=CCO[C@H]6CC(=O)N2[C@H]1[C@H]6[C@H]5C[C@H]43 | primary rat hippocampal/cortical neuron-glia cultures |  |  | 1 µM, with: 1 µM α-synuclein oligomers |  | reversal of trafficking deficit | -15.2%
CC(C)N1CCC(NC2CCN(c3cccc(-c4cc5cc(F)ccc5[nH]4)c3)CC2)CC1 | CCRF-CEM |  |  |  |  | GI50 | 1840 nM
C[C@H]1[C@H](C)CC[C@]2(C(=O)O)CC[C@]3(C)C(=CC[C@@H]4[C@@]5(C)CC[C@H](O)C(C)(C)[C@@H]5CC[C@]43C)[C@H]12 | 3T3 | cell growth, MTT |  | 12.5 µg/mL, 48 h |  | cell survival | 70.47 ± 0.31%
C=C1[C@@H](O)[C@@H]2O[C@]3(CC[C@H](/C=C/[C@@H](C)[C@@H]4CC(C)=C[C@@]5(O[C@H](C[C@@](C)(O)C(=O)O)CC[C@H]5O)O4)O3)CC[C@H]2O[C@@H]1[C@@H](O)C[C@H](C)[C@H]1O[C@@]2(CCCCO2)CC[C@H]1C | RPE-1 hTERT TP53-/- Cas9 cells |  |  | 12 days, knockout screen |  | LD20 | 2 nM
COc1c(CCC[P+](c2ccccc2)(c2ccccc2)c2ccccc2)cc2c(c1OC)OCO2.[I-] | MDA-MB-435 | SRB |  |  |  | LC50 | -4.45 log M
CN1CCN(C2(CNC3CCN(c4cccc(-c5cc6cc(F)ccc6[nH]5)c4)CC3)CCC2)CC1 | BT-549 |  |  |  |  | GI50 | 1720 nM
Nc1ncc(-c2nc(N3CCOCC3)nc(N3CCOCC3)n2)c(C(F)F)n1 | BT-549 |  |  | 72 h |  | GI50 | 160 nM
COc1cc2c(O)c3c(c(-c4ccc5c(c4)OCO5)c2cc1OC)C(=O)OC3 | HEK293 | BCECF-AM |  | concentration not given, 4 h | relative to: vehicle | cytosolic pH | no effect
COc1ccc(CC(=O)NC(NC(=NC#N)Nc2cccc3ncccc23)C(C)(C)C)cc1OC (centres unmarked) | N2a | fluorescence signal increase, inhibitor |  | 30 µM, with: ATP or BzATP 300 µM |  | effect on signal | inhibited
O=C(c1cc(-n2sc3ncccc3c2=O)ccc1Cl)N1CCOCC1 | HIV-infected PBMCs | measured: HLA-A2 |  | 1.0 µM, two donors |  | MHC-I surface recovery | 15.9 ± 5.3%
Cn1cc(-c2ccc(-c3cncc(Cl)c3N3CCC4(CCNC4=O)CC3)cc2)cn1 | COLO 205 | gene expression, microarray, measured: BIRC5 mRNA |  | concentration not given, 2 h | relative to: untreated cells | log2 fold change | -2.41
CCn1cc(-c2cc(Cn3ccnc3)cc3c2CCN([C@H](c2cc(OC)ccn2)C2CC2)C3=O)c(C(F)(F)F)n1 | A101D | cell growth, inhibitor |  | 120 h |  | EC50 | 66.6 nM

Excerpt of the above:
Structure (SMILES) | cell line | assay | system | setting | how to read | endpoint | result
CC(C)C[C@H](NC(=O)[C@H](CCc1ccccc1)NC(=O)CN1CCOCC1)C(=O)N[C@@H](Cc1ccccc1)C(=O)N[C@@H](CC(C)C)C(=O)[C@@]1(C)CO1 | patient normal conditionally reprogrammed cells | RNA-seq, measured: NLRP2 mRNA | human | concentration not given | relative to: DMSO | fold change | -4850
COc1c(C)c2c(c(O)c1C/C=C(\C)CCC(=O)O)C(=O)OC2 | CLS-439 | cell proliferation |  |  |  | IC50 | 468 nM
